Experimental data pooled from the literature.
Target: Serine/threonine-protein kinase 4 (STK4, Homo sapiens, UniProt Q13043)
One construct used (Q13043 1-487): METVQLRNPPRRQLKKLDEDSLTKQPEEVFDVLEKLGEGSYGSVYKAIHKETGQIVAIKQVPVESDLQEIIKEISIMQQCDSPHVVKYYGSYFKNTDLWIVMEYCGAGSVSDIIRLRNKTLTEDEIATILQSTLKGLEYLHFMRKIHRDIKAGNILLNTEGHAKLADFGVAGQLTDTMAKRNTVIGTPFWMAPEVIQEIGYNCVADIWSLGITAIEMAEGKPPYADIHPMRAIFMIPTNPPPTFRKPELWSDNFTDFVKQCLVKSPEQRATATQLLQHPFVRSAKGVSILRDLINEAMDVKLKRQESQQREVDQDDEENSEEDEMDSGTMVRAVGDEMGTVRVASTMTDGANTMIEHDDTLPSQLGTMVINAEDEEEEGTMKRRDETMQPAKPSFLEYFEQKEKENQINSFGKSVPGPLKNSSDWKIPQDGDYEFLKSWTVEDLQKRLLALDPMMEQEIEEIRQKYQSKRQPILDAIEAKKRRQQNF

Structure (SMILES) | test | test system | conditions | how to read | measurement | value
CCCOc1ccc(OC)c(F)c1C(=O)c1ccc(C(=O)N[C@@H]2CNC[C@H]2NC(=O)c2ccc3[nH]ncc3c2)cc1 | enzyme activity |  | 10 µM |  | remaining activity | 88%
CCN(CC)c1ccc(C2=NNC(=O)CC2C)cc1[N+](=O)[O-] (stereo not drawn) | enzyme activity, inhibitor |  | 10 µM | relative to: vehicle | remaining activity | 101%
C=CC(=O)N1CCC(C(=O)NCC(=O)N2CCN(c3nc(-c4cnc(N)nc4C(F)F)nc(N4CCOCC4)n3)CC2)CC1 | KINOMEscan |  | 1 µM |  | remaining binding | 92%
O=C(NC1CCC1)c1ccc2nc(-c3cccc(NS(=O)(=O)NCCN4CCCCC4)c3)cn2c1 | enzyme activity |  | 10 µM |  | remaining activity | 95%
CC[C@@H]1[C@H](F)C(=O)N[C@@H]1COc1nccc2cc(C(N)=O)c(OC)cc12 | ATP-site probe binding, ActivX profiling, measured: MST1 | THP-1 cell lysate | 0.2 mM, Lys1 site |  | inhibition | -2.3%
Cc1cc(Nc2cc(N3CCN(C)CC3)nc(Sc3ccc(NC(=O)C4CC4)cc3)n2)[nH]n1 | kinase activity, KinaseProfiler |  | 0.03 µM, species human | relative to: control | remaining activity | 94%
C1=C/COCc2cc(ccc2OCCN2CCCC2)Nc2nccc(n2)-c2cccc(c2)COC/1 |  |  | concentration not given, gene name MST1 |  | percent of control | 100%
CNc1ncc2c(/C=C/C(=O)N3CCC(OC)CC3)nn(Cc3cccc(C(F)(F)F)c3)c2n1 | kinase activity, inhibitor |  | 1 µM | relative to: untreated control | remaining activity | 103%
C=CC(=O)N1CCC(COCC(=O)N2CCN(c3nc(-c4cnc(N)nc4C(F)F)nc(N4CCOC[C@@H]4C)n3)CC2)CC1 | KINOMEscan |  | 1 µM | relative to: DMSO control | remaining binding | 100%
COc1cc(F)ccc1-c1ncnc(Nc2cccc(C[S@](C)(=N)=O)c2)n1 | kinase activity |  | 10 µM, with: 10 µM ATP |  | remaining activity | 94%
C[C@@H](c1ccc(-n2cnc3c(N)ncnc32)cc1)N1CCc2nn(C)c(Cc3ccccc3)c2C1=O | KINOMEscan |  | 0.1 µM | relative to: DMSO control | remaining binding | 97%
[2H]c1cc(C)c(NC(=O)c2cnc(Nc3cc(N4CCCCC4)nc(C)n3)s2)c(Cl)c1 |  |  | 0.01 µM |  | inhibition | < 30%
